Results of several laboratories.
Lines come from different studies, so protocols differ. Converted amounts (≈) assume the structure as drawn.

CC1COC2=C1C(=O)C(=O)c1c2ccc2c1C(OC(=O)CNC(=O)C(N)CO)CCC2(C)C (mixture of isomers) — thermodynamic solubility (PBS; pH 5.5, 25 °C): 676 µg/mL
CC[C@H](C)[C@H](NC(=O)[C@H](C)NC(=O)CNC(=O)[C@H](Cc1ccccc1)NC(=O)[C@H](CC(N)=O)NC(=O)[C@H](CC(N)=O)NC(=O)[C@H](CO)NC(=O)[C@H](CO)NC(=O)[C@H](Cc1c[nH]cn1)NC(=O)[C@@H](NC(=O)[C@H](CC(C)C)NC(=O)[C@H](Cc1ccccc1)NC(=O)[C@H](CC(N)=O)NC(=O)[C@H](C)NC(=O)[C@H](CC(C)C)NC(=O)[C@H](CCCNC(=N)N)NC(=O)[C@H](CCC(N)=O)NC(=O)[C@@H](NC(=O)[C@H](C)NC(=O)[C@@H]1CSSC[C@H](NC(=O)[C@@H](N)CCCCN)C(=O)N[C@@H](CC(N)=O)C(=O)N[C@@H]([C@@H](C)O)C(=O)N[C@@H](C)C(=O)N[C@@H]([C@@H](C)O)C(=O)N1)[C@@H](C)O)C(C)C)C(=O)N[C@@H](CC(C)C)C(=O)N[C@@H](CO)C(=O)N[C@@H](CO)C(=O)N[C@H](C(=O)N[C@@H](CC(N)=O)C(=O)N[C@H](C(=O)NCC(=O)N[C@@H](CO)C(=O)N[C@@H](CC(N)=O)C(=O)N[C@H](C(=O)N[C@@H](Cc1ccc(O)cc1)C(N)=O)[C@@H](C)O)C(C)C)[C@@H](C)O[C@H]1O[C@H](CO)[C@H](O)[C@H](O)[C@H]1NC(C)=O — thermodynamic solubility (PBS; 1 h, pH 7.4): 40 µg/mL (≈ 9.74 µM)
CC1COC2=C1C(=O)C(=O)c1c2ccc2c1C(OC(=O)CNC(=O)CN)CCC2(C)C (mixture of isomers) — thermodynamic solubility (PBS; pH 6.4, 25 °C): 326 µg/mL
COCCOCCc1cc(NC(=O)C(C)(C)S(=O)(=O)C2CCOCC2)on1 — solubility (water): > 510 µg/mL
CC[C@H](C)[C@H](NC(=O)[C@H](C)NC(=O)CNC(=O)[C@H](Cc1ccccc1)NC(=O)[C@H](CC(N)=O)NC(=O)[C@H](CC(N)=O)NC(=O)[C@H](CO)NC(=O)[C@H](CO)NC(=O)[C@H](Cc1c[nH]cn1)NC(=O)[C@@H](NC(=O)[C@H](CC(C)C)NC(=O)[C@H](Cc1ccccc1)NC(=O)[C@H](CC(N)=O)NC(=O)[C@H](C)NC(=O)[C@H](CC(C)C)NC(=O)[C@H](CCCNC(=N)N)NC(=O)[C@H](CCC(N)=O)NC(=O)[C@@H](NC(=O)[C@H](C)NC(=O)[C@@H]1CSSC[C@H](NC(=O)[C@@H](N)CCCCN)C(=O)N[C@@H](CC(N)=O)C(=O)N[C@@H]([C@@H](C)O)C(=O)N[C@@H](C)C(=O)N[C@@H]([C@@H](C)O)C(=O)N1)[C@@H](C)O[C@H]1O[C@H](CO[C@]2(C(=O)O)C[C@H](O)[C@@H](NC(C)=O)[C@H]([C@H](O)[C@H](O)CO)O2)[C@H](O)[C@H](O[C@@H]2O[C@H](CO)[C@H](O)[C@H](O)[C@H]2O)[C@H]1NC(C)=O)C(C)C)C(=O)N[C@@H](CC(C)C)C(=O)N[C@@H](CO)C(=O)N[C@@H](CO)C(=O)N[C@H](C(=O)N[C@@H](CC(N)=O)C(=O)N[C@H](C(=O)NCC(=O)N[C@@H](CO)C(=O)N[C@@H](CC(N)=O)C(=O)N[C@H](C(=O)N[C@@H](Cc1ccc(O)cc1)C(N)=O)[C@@H](C)O)C(C)C)[C@@H](C)O — thermodynamic solubility (PBS; 1 h, pH 7.4): 680 µg/mL (≈ 149 µM)
CC1COC2=C1C(=O)C(=O)c1c2ccc2c1C(OC(=O)CNC(=O)C(N)CCC(=O)O)CCC2(C)C (mixture of isomers) — thermodynamic solubility (PBS; pH 5.5, 25 °C): 1870 µg/mL
CC[C@H](C)[C@H](NC(=O)[C@H](C)NC(=O)CNC(=O)[C@H](Cc1ccccc1)NC(=O)[C@H](CC(N)=O)NC(=O)[C@H](CC(N)=O)NC(=O)[C@H](CO)NC(=O)[C@H](CO)NC(=O)[C@H](Cc1c[nH]cn1)NC(=O)[C@@H](NC(=O)[C@H](CC(C)C)NC(=O)[C@H](Cc1ccccc1)NC(=O)[C@H](CC(N)=O)NC(=O)[C@H](C)NC(=O)[C@H](CC(C)C)NC(=O)[C@H](CCCNC(=N)N)NC(=O)[C@H](CCC(N)=O)NC(=O)[C@@H](NC(=O)[C@H](C)NC(=O)[C@@H]1CSSC[C@H](NC(=O)[C@@H](N)CCCCN)C(=O)N[C@@H](CC(N)=O)C(=O)N[C@@H]([C@@H](C)O)C(=O)N[C@@H](C)C(=O)N[C@@H]([C@@H](C)O)C(=O)N1)[C@@H](C)O)C(C)C)C(=O)N[C@@H](CC(C)C)C(=O)N[C@@H](CO)C(=O)N[C@@H](CO)C(=O)N[C@H](C(=O)N[C@@H](CC(N)=O)C(=O)N[C@H](C(=O)NCC(=O)N[C@@H](CO)C(=O)N[C@@H](CC(N)=O)C(=O)N[C@H](C(=O)N[C@@H](Cc1ccc(O)cc1)C(N)=O)[C@@H](C)O)C(C)C)[C@@H](C)O[C@H]1O[C@H](CO)[C@H](O)[C@H](O[C@@H]2O[C@H](CO)[C@H](O)[C@H](O[C@]3(C(=O)O)C[C@H](O)[C@@H](NC(C)=O)[C@H]([C@H](O)[C@H](O)CO)O3)[C@H]2O)[C@H]1NC(C)=O — thermodynamic solubility (PBS; 1 h, pH 7.4): 3750 µg/mL (≈ 823 µM)
CC[C@H](C)[C@@H]1NC(=O)[C@H](CCCNC(=N)N)NC(=O)C[C@@H](c2cccc3ccccc23)NC(=O)[C@@H]2CSSC[C@H](NC(=O)C[C@@H](c3cccc4ccccc34)NC(=O)[C@H](CCCNC(=N)N)NC(=O)[C@@H]3CCCN3C(=O)[C@@H]3CCCN3C1=O)C(=O)N[C@@H](Cc1ccccc1)C(=O)N1CCC[C@H]1C(=O)N[C@@H](CC(=O)O)C(=O)N[C@@H](CC(=O)O)C(=O)N[C@@H](Cc1ccccc1)C(=O)N2 — solubility (water): < 1000 µg/mL
NC1CCN(C(=O)Oc2cccc([C@H]3CCC[C@@]4(C3)OOC3(O4)C4CC5CC(C4)CC3C5)c2)CC1 (stereo partly drawn) — kinetic solubility (PBS; pH 7.4): 48.7 µM (≈ 23.5 µg/mL)
